Experimental data collected from several papers.
A part holds a random share of what one study measured. Substitutions count along the parent as printed.

Series 1 — method: RNA Bind-n-Seq; molecule type: RNA; matrix: in vitro; tested at: 200 nM; notes: whole 134-nt RNA, ends assumed; added: 150 mM KCl; baseline: input library; direction: higher = stronger binding
Target: Fragile X messenger ribonucleoprotein 1, C-terminal low-complexity region (Fmr1, Mus musculus, UniProt P35922)
Oligonucleotide	log2 enrichment
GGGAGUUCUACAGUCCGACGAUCUCCUGUGCUACACAUCGUAUGUACCGAAUCGGGGUUUUUUUGGGGUUUGGGGUUUGGGGAAAGUAUUAUGUUACGCCGUUCGGAUCUGCAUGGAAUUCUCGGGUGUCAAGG	0.975
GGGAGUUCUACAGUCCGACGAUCUGCAGCUGCUGGCCGCCUCCUAUGACCUGCACCGCUACUUCUACACGGGUGCCGAGAUCCUGGGCCUCAUCGACGAGAAGCACCGCGAGCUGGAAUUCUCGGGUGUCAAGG	-0.103
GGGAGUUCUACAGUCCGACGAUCUGCCAUAAGCGGCACCGGCACUGCCCGGUUGUCGUGUCCGAGGCCACCAUCGUGGGCGUCCGCAAGACCGGGCAGAUCUGGCCCAACGAUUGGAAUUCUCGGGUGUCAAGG	-1.5
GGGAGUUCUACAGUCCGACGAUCCUGUGCUACACAUCGUAUGUACCGAAUCGGGGAAAAAAAGGGAAAAAAAGGGAAAAAAAGGGAAAGUAUUAUGUUACGCCGUUCGGAUCUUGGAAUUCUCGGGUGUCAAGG	-0.533
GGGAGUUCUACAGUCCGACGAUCCCUCAAGUCCUGUGCUACACAUCGUAUGUACCGAAUCGGUGGUUUGGAAAGGAAAGUAUUAUGUUACGCCGUUCGGAUCUGCACUUCCAGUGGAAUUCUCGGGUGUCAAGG	0.185
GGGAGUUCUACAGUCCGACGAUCCCUGUGCUACACAUCGUAUGUACCGAAUCGGGGAAAAAAAGGGGAAAAAAAGGGGUGGGGAAAGUAUUAUGUUACGCCGUUCGGAUCUGCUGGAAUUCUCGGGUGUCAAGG	0.293
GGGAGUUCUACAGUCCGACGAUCAGUCCUGUGCUACACAUCGUAUGUACCGAAUCGGGAAAAGGGGAAAAGGGGAAAAGGGAAAGUAUUAUGUUACGCCGUUCGGAUCUGCACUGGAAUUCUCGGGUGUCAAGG	0.0762
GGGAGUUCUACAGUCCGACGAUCUCCUAGUCCUAGGAAAACUCCAGUUGCCAGUGAUCAACGCCGUAGGUCCUGCAAAACAGCCCCUGCUUCCAGCAGCAAAUCUCAGACAGAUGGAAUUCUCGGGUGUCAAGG	0.0483
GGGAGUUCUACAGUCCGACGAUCUGGGAGGUGGAUUUUGUUUAUUUUUUUAGCUCAUUUCCAGGGGUGGGAAUUUUUUUUUAAUAUGUGUCUUGAAUAAAGUUGUUUUUGAAAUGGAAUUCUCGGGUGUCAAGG	0.239
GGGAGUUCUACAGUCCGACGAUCUCCUGUGCUACACAUCGUAUGUACCGAAUCGGGUUUUUGGGAAAAAAAGGGAAAAAGGGAAAGUAUUAUGUUACGCCGUUCGGAUCUGCAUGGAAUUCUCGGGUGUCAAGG	-0.336

Series 2 — method: EMSA with sequencing; molecule type: double-stranded DNA, one strand shown; matrix: in vitro; tested at: 10 and 20 nM; baseline: negative control set to 0; direction: higher = stronger binding
Target: Hepatocyte nuclear factor 3-alpha (Foxa1, Mus musculus, UniProt P35582, residues 1-468, full length assumed)
Notes: whole designed probe, mean of two concentrations, ends assumed
Residues (chain): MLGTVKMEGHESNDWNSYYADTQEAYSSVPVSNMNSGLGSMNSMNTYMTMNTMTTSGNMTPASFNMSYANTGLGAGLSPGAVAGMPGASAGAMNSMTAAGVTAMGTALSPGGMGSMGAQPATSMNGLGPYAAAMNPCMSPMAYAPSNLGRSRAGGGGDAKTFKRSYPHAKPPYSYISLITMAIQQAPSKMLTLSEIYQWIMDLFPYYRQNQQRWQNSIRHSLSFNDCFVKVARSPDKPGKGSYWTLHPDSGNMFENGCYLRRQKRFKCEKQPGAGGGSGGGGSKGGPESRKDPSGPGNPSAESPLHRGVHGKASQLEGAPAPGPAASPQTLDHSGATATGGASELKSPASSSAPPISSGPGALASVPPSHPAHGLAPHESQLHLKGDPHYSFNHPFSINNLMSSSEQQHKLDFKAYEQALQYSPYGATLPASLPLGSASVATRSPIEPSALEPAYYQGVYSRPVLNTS
Oligonucleotide	normalised bound fraction [ratio]
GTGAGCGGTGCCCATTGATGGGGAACTTTCCACCTAAAATATTGTCATTCAGAAGGGAATCACTTTAATATCCACAAAGGAAAATTAACATGTTATAATTTCAGCCACAATAATATCTATGTAAACATGCATTTAATCCTACTAATTTACAATTAATTCAATTTTTCTTTTATATTCTGCATTCCACATAAAGCGATAACAGGAAAACATAAAATTCCATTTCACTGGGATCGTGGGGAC	0.272
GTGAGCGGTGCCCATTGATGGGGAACTTATGATCTGAGTATATATAGTAAGTACCTCCCCTTTCAGGGTAAGGCAGTAGGTAATGGTGAAAAGGTGACTCACAGGGAAGCAAGGTTGAGTAAACAACACCAAGCATATCTGACTCAAGGAATGCTTCAGAGGCCAGGGGTGCATGCCTGTAATCCCAGCACCTTGGAAGGCTGACACAGGAGGATCACTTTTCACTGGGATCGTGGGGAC	0.353
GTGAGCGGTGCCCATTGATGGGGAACGTGTGCTAGCCTGTGAGTTTTTCTCTCCAACTAGCCTGGGTACTCAGGAAAGTGAGATCAACTTCTTTGGGTGTAGCGGGTGGCCTGACCTGTGCAAATAGGGGAGACAGTTGACATACAGATGAAAGGGGAGATGGGAAGCCATACAGAGGAAGGAGAAGATCAGGAACCAGAGATAAGATAATTCTGTAAATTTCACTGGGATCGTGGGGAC	0.109
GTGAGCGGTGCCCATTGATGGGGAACATCTTCCCCCTCTTCCTTGCCCCACCAGCTCACCTTCCCGGGTTATTTGCAGATAGGAAAATAAATAAAGCCGGCATTCGTTAACCCTCTTCTGGCGCAAACTGCTGTTTGCTCTGGATGAATCATGGTCCTTTGGCGACGCCGGGAGCGTAAGCCACGGACAACCGTGTCAGGGCCATGATCCGGGGTGGCCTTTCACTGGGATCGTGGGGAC	0.351
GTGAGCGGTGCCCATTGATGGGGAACATCTTCCCCCTCTTCCTTGCCCCACCAGCTCACCTTCCCGGGTTATTTGCACAAAGGAAAATAAATAAAGCCGGCATTCGTTAACCCTCTTCACGCGCATACTGCTGTTTGCTCTGGATGAATCATGGTCCTTTGGCGAGGCGTGGCTCCGGGAGAGCAAAGCACCGTGTCAGGGCCATGATCCGGGGTGGCCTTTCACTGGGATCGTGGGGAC	0.365
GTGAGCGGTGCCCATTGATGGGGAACCCAAAGTATCACAGGGAGAGATGGGCCTCTTGGGGCAGCAGCAGCAGCTGAAGCAGGCTGACTCACAGCTGCTTCTAATATGCTAGGCTTTGTGTAAACAGGCTTTATGACACAAGTGGGCTGACTACAGTGCAATTGGAGTGTGGCATCTGAGTCACTGTGAGGCTCTAGCTGGCTTCTTCCAGCCCTGGCCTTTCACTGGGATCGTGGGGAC	0.31

Series 3 — method: DHFR PCA, deep sequencing; matrix: yeast; added: (+)-ABA 710 µM; baseline: wild-type fitted maximum; direction: higher = stronger binding
Target: ABI1, truncated, D143A, DHFR fusion (Arabidopsis thaliana)
Notes: methotrexate growth selection, single substitutions
Starting sequence: PYL1, truncated, DHFR fusion (Arabidopsis thaliana); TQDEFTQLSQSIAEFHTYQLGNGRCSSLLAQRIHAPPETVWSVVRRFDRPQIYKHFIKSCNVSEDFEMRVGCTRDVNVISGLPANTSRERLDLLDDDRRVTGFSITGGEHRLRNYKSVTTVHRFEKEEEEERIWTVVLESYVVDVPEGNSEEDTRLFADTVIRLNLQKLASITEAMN
Variant	relative binding score
F124C	110%
R88S	105%
Y141N	-7.17%
N177R	82.3%
D144Y	65%
C72A	98.3%
G102A	102%
Q7E	104%
S42L	94%
D97W	96.5%
L8I	85.4%
T106D	94.9%
T120D	2.93%
R74S	7.05%
R90W	41.6%
R45H	68.6%
D144M	81.5%

Series 4 — target: CCNB3, cyclin fold, Cln2 fusion (human); method: yeast growth competition, sequencing; matrix: yeast; notes: weak parent motif; baseline: not given; direction: higher = stronger binding
Starting sequence: CDC6 docking peptide (human); TLKGRRLVFDNQL; partner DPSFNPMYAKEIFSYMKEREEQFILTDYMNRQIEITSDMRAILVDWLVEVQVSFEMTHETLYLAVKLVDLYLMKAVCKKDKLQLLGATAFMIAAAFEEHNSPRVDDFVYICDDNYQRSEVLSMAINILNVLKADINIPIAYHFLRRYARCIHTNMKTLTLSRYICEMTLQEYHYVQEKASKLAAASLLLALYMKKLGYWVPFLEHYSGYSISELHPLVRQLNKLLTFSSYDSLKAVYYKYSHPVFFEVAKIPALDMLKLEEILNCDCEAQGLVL
Variant	normalised enrichment score
D10E	-0.438
V8R	0.262
L7Q	0.303
L7H	-0.0969
R5C	0.108
L7C	-0.135
T1D	-0.174
V8T	0.163
V8C	0.776
V8K	0.312
L2V	0.509
T1R	-0.176
R5K	0.138
L7I	0.182
V8S	0.369
K3T	0.486
G4D	0.237
F9P	0.544
R6S	-0.224
D10K	-0.17
D10P	0.06
K3A	0.379
G4K	-0.273
Q12S	-0.179
L13R	0.36

Excerpt of the above (series 3):
Variant	relative binding score
L8I	85.4%
S42L	94%
Q7E	104%
T106D	94.9%
T120D	2.93%
R74S	7.05%
Y141N	-7.17%
